# Published values gathered from unrelated publications.
# Protocols differ between the studies behind these lines.
SMILES,assay,system,setting,measurement,result
CCCCCCCCCCCCCCCC(=O)N[C@@H](CCC(=O)NCCCC[C@@H]1NC(=O)[C@H]([C@@H](C)CC)NC(=O)[C@@H](NC(=O)[C@@H]2CCCN2C(=O)[C@H](Cc2ccccc2)NC(=O)[C@H](Cc2c[nH]cn2)NC(=O)[C@@H](NC(=O)[C@H](CC(=O)O)NC(=O)CC(C)C)[C@@H](C)O)CSSC[C@@H](C(=O)N[C@@H](CCCCN)C(N)=O)NC(=O)CNC(=O)[C@H](CCCCN)NC(=O)[C@H](CO)NC(=O)[C@H](CCCNC(=N)N)NC(=O)[C@@H]2CCCN2C(=O)[C@H](CCC(=O)O)NC(=O)[C@H](Cc2ccccc2)NC1=O)C(=O)O,,healthy human,dose not given,subjects with injection-site reactions,28%
COc1ccc2c(c1)[C@]13CCCC[C@@H]1[C@H](C2)N(C)CC3,,human,"oral, dose not given",subjects with terminating TEAE,0%
Cc1ncc2n1-c1ccc(Cl)cc1C(c1ccccc1F)=NC2,refers to: skin and subcutaneous disorders (SOC),humans,"oral, dose not given",subjects with TEAEs,0%
NCCCC[C@@H]1NC(=O)[C@@H](Cc2c[nH]c3ccccc23)NC(=O)[C@H](c2ccccc2)NC(=O)[C@@H]2C[C@@H](OC(=O)NCCN)CN2C(=O)[C@H](Cc2ccccc2)NC(=O)[C@H](Cc2ccc(OCc3ccccc3)cc2)NC1=O,,healthy human volunteers,600 µg twice daily,subjects with upper abdominal pain,3%
CC(=O)N(C)[C@H]1CCN(C(=O)c2cnc3c(c2)C[C@](C)(c2ccc(F)cc2)N3)C1,,healthy male human,"oral, 60 mg once daily, multiple rising dose, with: midazolam",subjects with AESIs,0%
C[C@]1(CO)Cc2ncn(-c3ccc(C#N)c(Cl)c3)c2C(=O)O1,,human,10 mg single dose,subjects with severe TEAEs,0%
CNC(=O)n1ccc2cc(Oc3ccnc(NC(=O)c4ccc(C5CCN(CCO)CC5)cc4)c3)c(OCCOC)cc21,,healthy human,"oral, 35 mg, fed",subjects with TEAEs,7.7%
C=C(C)[C@@H]1CCC(C)=C[C@H]1c1c(O)cc(CCCCC)cc1O,,human,"750 mg, trial 17075, with: fluconazole 400 mg",subjects with AEs,19%
Cc1ncc2n1-c1ccc(Cl)cc1C(c1ccccc1F)=NC2,,human,"oral, dose not given",subjects with terminating TEAE,0%
CC[C@H]1[C@@H](O)[C@@H]2[C@H](CC[C@]3(C)[C@@H]([C@H](C)CCNC(=O)NS(=O)(=O)c4ccc(C(C)(C)C)cc4)CC[C@@H]23)[C@@]2(C)CC[C@@H](O)C[C@@H]12,,human,"dose not given, drug interaction study",subjects with TEAEs,21%

# Repeated from above:
SMILES,assay,system,setting,measurement,result
Cc1ncc2n1-c1ccc(Cl)cc1C(c1ccccc1F)=NC2,refers to: skin and subcutaneous disorders (SOC),humans,"oral, dose not given",subjects with TEAEs,0%
